# Assay results collected from several papers.
# Lines come from different studies, so protocols differ. ± gives the spread as reported.
Structure (SMILES),cell line,assay,setting,scale,quantity,result
C=C1C(=O)O[C@H]2[C@H]1CC/C(C)=C/CC[C@@]1(C)O[C@@H]21,BT-16,"cell viability, MTT","10 µM, 72 h",,inhibition,94.9%
C=CC1=C(C)c2cc3[n-]c(cc4nc(cc5[n-]c(cc1n2)c(C)c5C=C)C(C)=C4CCC(=O)O)c(CCC(=O)O)c3C.[Zn+2],SH-SY5Y,"RNA-seq, refers to: CXCL12 mRNA","5 µM, 5 h",reference: untreated cells,fold change,1.58
CCn1cc(-c2cc(Cn3ccoc3=N)cc3c2CCN([C@@H](C)c2cc(OC)ccn2)C3=O)c(C(F)(F)F)n1,CAMA-1,"cell growth, inhibitor",120 h,,EC50,0.923 µM
C=CCn1c(=O)c2cnc(Nc3ccc(N4CCN(C)CC4)cc3)nc2n1-c1ccc2c(n1)[C@@](O)(CC)CC2,MDA-MB-231,flow cytometry,concentration not given,,G2/M phase cells,22.9%
CC/C(=N\NC(=O)C(C)Nc1ccccc1)c1ccc(O)c(C)c1O (centres unmarked),SK-OV-3,Western blot,"10 µM, 3 h, 2D culture, unit not given",reference: DMSO,TAZ band intensity,0.26 ± 0.1
CCn1cc(-c2cc(Cn3ccnc3)cc3c2CCN([C@H](c2cc(OC)ccn2)C2CC2)C3=O)c(C(F)(F)F)n1,ZR-75-1,"cell growth, inhibitor",120 h,,EC50,29.6 µM
COc1cc2ncnc(Nc3ccc(Oc4ccccc4)cc3C)c2cc1OC.O=C(O)C(F)(F)F,MeWo (NF1 mutant),cell viability,"concentration not given, 72 h, with: trametinib",direction not given,Bliss synergy score,146%
O=C(O)COCC(=O)O,iPSC-derived hepatocytes B2,cell viability,"24 h, differentiation day 23",,IC50,9410 µM
Cn1cc(-c2ccc(-c3cncc(Cl)c3N3CCC4(CCNC4=O)CC3)cc2)cn1,COLO 205,"gene expression, microarray, refers to: NFATC2 mRNA","concentration not given, 6 h",reference: untreated cells,log2 fold change,1.27
Nc1cccc2c1C(=O)N(C1CCC(=O)NC1=O)C2=O (centres unmarked),MM1.S,XTT,1 µM,reference: untreated,viability,25%
Cc1nn(-c2nc3c(F)cc(F)cc3s2)c(O)c1C(c1ccc(C(F)(F)F)cc1)c1c(C)nn(-c2nc3c(F)cc(F)cc3s2)c1O,RAW-ISG,IFN luciferase reporter,"80 µM, with: HT-DNA",,inhibition,100%
Cc1cccc(C)c1OCC(=O)N[C@@H](Cc1ccccc1)[C@@H](O)C[C@H](Cc1ccccc1)NC(=O)[C@H](C(C)C)N1CCCNC1=O,ΔE-expressing cells,"ΔE mislocalization, high-content imaging",,,maximal efficacy,70%
CCc1cnc(N2CCC(c3nc(COc4ccc(-n5cnnn5)cc4)cs3)CC2)nc1,HEK-293T,"RNA-seq GSEA, refers to: HALLMARK_GLYCOLYSIS",concentration not given,direction not given,normalized enrichment score,1.05
COc1cc(-c2cnc(C)n2C)ccc1Nc1ncc2ccnc(NCC(C)(C)C)c2n1,CAL-51,cell growth,72 h,,GI50,0.012 µM
CCN1CCN(Cc2ccc(Nc3ncc(F)c(-c4cc(F)c5nc(C)n(C(C)C)c5c4)n3)nc2)CC1.CS(=O)(=O)O,BT-16,"cell viability, MTT","10 µM, 72 h",,inhibition,88.7%
NC1(C(=O)N[C@@H](CCO)c2ccc(Cl)cc2)CCN(c2ncnc3[nH]ccc23)CC1,PC-3,flow cytometry,"concentration not given, 48 h",,G2/M phase cells,20.8%
CC[C@@H]1C(=O)N(C)c2cnc(Nc3ccc(C(=O)N[C@H]4CC[C@H](N5CCN(CC6CC6)CC5)CC4)cc3OC)nc2N1C(C)C,BT-16,"cell viability, MTT","10 µM, 72 h",,inhibition,88.4%
COc1ccc(-n2nc(C(C)=O)s/c2=N\N=C(/C)c2ccc(NC(=O)c3ccccc3)cc2)cc1,MCF7,,5 µM,,viability,2.5%
COc1cc(Nc2ncc(F)c(Nc3ccc4c(n3)N(COP(=O)(O)O)C(=O)C(C)(C)O4)n2)cc(OC)c1OC,BT-16,"cell viability, MTT","10 µM, 72 h",,inhibition,94.7%
CC(C)NCC(O)c1ccc(O)c(O)c1 (centres unmarked),mouse ventricular cardiomyocytes,,"dose not given, 0.427 s",,sarcomere length,1.73 µm

# Repeated from above:
Structure (SMILES),cell line,assay,setting,scale,quantity,result
CCc1cnc(N2CCC(c3nc(COc4ccc(-n5cnnn5)cc4)cs3)CC2)nc1,HEK-293T,"RNA-seq GSEA, refers to: HALLMARK_GLYCOLYSIS",concentration not given,direction not given,normalized enrichment score,1.05
Cn1cc(-c2ccc(-c3cncc(Cl)c3N3CCC4(CCNC4=O)CC3)cc2)cn1,COLO 205,"gene expression, microarray, refers to: NFATC2 mRNA","concentration not given, 6 h",reference: untreated cells,log2 fold change,1.27
